Assay results of several laboratories.
Parts stem from different laboratories: compare values within a part only.
Chain of UniProt P53355 (whole entry, looked up): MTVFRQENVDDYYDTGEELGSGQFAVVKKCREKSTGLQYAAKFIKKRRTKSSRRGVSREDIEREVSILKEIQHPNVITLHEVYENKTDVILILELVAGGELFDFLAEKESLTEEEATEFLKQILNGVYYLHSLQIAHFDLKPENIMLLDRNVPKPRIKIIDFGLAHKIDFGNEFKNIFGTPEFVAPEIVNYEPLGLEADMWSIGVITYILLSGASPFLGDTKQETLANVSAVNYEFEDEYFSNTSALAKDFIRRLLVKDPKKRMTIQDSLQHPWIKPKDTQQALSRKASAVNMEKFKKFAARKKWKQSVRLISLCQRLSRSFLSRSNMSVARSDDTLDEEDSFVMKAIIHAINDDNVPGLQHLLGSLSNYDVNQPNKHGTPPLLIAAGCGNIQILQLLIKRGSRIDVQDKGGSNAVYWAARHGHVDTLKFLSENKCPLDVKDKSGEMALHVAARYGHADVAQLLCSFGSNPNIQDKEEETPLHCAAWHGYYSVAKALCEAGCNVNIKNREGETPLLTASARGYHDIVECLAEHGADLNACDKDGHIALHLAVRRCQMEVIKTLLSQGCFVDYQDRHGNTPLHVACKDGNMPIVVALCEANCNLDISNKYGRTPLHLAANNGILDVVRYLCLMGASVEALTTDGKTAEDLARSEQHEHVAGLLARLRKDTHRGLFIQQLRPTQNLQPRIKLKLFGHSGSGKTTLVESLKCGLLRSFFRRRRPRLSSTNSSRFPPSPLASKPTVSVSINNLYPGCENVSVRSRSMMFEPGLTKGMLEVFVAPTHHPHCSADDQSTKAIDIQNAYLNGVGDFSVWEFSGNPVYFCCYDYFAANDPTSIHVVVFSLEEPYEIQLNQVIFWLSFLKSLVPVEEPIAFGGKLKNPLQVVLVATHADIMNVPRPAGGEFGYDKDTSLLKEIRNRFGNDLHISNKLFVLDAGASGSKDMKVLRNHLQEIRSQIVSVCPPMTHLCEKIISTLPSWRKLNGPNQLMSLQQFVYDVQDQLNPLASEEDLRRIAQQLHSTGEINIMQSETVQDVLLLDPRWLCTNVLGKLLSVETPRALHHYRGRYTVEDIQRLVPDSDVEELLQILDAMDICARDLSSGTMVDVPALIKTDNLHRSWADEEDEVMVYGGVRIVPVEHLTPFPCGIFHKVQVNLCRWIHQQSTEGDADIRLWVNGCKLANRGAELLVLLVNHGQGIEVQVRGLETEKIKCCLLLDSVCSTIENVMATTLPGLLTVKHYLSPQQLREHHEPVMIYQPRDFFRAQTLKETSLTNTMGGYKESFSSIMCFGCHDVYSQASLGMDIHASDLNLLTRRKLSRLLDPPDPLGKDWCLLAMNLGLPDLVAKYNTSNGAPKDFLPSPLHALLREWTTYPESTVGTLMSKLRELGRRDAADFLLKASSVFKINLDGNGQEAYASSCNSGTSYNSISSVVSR
Chain of UniProt P05771 (whole entry, looked up): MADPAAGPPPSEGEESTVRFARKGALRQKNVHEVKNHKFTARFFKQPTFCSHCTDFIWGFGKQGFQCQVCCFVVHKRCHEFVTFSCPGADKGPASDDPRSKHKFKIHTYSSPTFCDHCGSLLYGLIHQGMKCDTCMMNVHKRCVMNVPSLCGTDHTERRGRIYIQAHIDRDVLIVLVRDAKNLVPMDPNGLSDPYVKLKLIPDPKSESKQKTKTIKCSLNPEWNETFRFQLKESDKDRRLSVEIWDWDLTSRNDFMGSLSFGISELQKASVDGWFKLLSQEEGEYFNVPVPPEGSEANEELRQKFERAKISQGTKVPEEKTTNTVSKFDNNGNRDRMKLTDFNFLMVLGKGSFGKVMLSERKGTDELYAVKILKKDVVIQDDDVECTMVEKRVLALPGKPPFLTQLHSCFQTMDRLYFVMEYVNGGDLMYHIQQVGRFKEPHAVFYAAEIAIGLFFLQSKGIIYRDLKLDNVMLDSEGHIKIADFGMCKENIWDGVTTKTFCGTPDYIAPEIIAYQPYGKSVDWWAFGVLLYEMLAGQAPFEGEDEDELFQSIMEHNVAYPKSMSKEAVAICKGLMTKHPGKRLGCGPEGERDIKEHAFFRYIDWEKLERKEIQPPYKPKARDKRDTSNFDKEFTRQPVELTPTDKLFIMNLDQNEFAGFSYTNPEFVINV
Chain of UniProt P36897 (whole entry, looked up): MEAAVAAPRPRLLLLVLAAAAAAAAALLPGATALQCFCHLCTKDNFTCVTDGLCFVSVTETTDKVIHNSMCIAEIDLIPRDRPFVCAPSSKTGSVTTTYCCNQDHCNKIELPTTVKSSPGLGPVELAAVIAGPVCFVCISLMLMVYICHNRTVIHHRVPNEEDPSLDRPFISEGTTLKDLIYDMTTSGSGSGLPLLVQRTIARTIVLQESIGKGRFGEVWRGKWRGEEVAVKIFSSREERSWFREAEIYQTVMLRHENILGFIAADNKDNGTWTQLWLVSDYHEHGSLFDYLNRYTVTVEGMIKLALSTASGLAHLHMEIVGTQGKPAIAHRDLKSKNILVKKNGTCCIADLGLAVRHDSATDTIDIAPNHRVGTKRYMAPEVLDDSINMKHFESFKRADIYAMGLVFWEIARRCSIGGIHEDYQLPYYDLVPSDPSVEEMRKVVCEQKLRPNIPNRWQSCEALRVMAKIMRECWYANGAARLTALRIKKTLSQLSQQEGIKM
Chain of UniProt P35626 (whole entry, looked up): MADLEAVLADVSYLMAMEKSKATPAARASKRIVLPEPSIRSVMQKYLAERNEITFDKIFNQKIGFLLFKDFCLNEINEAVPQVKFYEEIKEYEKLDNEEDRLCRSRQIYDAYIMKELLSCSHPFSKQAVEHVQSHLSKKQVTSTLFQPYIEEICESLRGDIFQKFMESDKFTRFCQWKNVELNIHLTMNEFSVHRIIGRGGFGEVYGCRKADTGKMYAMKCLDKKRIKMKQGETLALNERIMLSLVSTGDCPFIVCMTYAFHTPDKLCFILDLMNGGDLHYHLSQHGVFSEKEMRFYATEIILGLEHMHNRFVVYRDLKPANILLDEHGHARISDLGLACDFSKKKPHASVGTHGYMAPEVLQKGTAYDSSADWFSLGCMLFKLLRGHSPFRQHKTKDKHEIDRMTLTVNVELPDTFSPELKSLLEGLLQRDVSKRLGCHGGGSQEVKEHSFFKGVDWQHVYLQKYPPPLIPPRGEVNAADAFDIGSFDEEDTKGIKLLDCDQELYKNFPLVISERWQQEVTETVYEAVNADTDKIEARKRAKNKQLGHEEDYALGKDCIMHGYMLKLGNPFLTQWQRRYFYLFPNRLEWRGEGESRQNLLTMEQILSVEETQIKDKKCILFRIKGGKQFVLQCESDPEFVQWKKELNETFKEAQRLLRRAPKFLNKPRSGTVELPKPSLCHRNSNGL
Chain of UniProt P45984 (whole entry, looked up): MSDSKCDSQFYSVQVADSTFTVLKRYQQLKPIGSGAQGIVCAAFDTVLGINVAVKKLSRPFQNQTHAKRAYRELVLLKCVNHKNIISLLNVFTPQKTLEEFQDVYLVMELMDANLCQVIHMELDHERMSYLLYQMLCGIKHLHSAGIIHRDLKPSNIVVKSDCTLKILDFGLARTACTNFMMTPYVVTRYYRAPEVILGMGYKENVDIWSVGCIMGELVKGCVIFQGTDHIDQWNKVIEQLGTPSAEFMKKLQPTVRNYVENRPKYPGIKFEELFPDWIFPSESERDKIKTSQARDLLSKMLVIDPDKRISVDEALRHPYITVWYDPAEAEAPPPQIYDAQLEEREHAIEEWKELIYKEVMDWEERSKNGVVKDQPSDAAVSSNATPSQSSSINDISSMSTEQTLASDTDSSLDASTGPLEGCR
Chain of UniProt O96017 (whole entry, looked up): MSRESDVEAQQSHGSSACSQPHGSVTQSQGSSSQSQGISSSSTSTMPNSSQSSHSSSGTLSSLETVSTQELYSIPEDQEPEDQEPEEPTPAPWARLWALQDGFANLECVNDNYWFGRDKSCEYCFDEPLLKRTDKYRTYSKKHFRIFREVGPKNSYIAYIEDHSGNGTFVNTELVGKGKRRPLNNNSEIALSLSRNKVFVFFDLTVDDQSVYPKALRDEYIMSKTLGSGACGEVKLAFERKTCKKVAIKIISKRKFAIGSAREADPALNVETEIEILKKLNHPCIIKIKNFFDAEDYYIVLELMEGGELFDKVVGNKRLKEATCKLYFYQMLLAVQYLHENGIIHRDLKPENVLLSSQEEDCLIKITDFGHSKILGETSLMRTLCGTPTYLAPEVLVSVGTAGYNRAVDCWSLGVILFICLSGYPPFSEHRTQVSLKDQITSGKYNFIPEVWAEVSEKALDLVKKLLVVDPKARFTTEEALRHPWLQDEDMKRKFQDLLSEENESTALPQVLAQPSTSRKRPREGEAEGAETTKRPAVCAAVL
Chain of UniProt Q9UIK4 (whole entry, looked up): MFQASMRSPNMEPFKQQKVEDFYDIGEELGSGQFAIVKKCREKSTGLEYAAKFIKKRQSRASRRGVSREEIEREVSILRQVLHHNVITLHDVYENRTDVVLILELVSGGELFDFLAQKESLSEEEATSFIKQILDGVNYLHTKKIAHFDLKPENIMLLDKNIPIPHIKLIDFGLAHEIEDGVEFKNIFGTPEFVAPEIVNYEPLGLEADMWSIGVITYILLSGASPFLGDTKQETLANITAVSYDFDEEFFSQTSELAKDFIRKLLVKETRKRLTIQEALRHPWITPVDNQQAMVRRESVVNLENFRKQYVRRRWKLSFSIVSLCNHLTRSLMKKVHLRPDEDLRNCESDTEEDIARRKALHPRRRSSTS

Series 1 — Compound: Cc1nc2cc3nc(-c4cccs4)cnc3cc2n1C; read-out: enzyme activity; action: inhibitor; tested at: 0.5 µM; relative to: control; endpoint: remaining activity
IKBKB (Homo sapiens, UniProt O14920): 103%
NEK2 (Homo sapiens, UniProt P51955): 97%
CHEK2 (Homo sapiens, UniProt O96017): 94.6%
Tyrosine-protein kinase Lyn, isoform B (LYN, Homo sapiens, UniProt P07948): 117%
TGFBR1 (Homo sapiens, UniProt P36897): 98.7%
PRKACA (Homo sapiens, UniProt P17612): 100%
DAPK2 (Homo sapiens, UniProt Q9UIK4): 94.1%
cGMP-dependent protein kinase 1, isoform beta (PRKG1, Homo sapiens, UniProt Q13976): 98.5%
IKBKE (Homo sapiens, UniProt Q14164): 89.8%
GRK3 (Homo sapiens, UniProt P35626): 99.2%
MAPK9 (Homo sapiens, UniProt P45984): 74.7%
Cyclin-dependent kinase 5, with p25 (CDK5, Homo sapiens, UniProt Q00535): 99.3%
TGFBR2 (Homo sapiens, UniProt P37173): 89.2%
OXSR1 (Homo sapiens, UniProt O95747): 99.4%
Cyclin-dependent kinase 4, with cyclin D1 (CDK4, Homo sapiens, UniProt P11802): 108%
PRKCA (Homo sapiens, UniProt P17252): 74.7%
DAPK1 (Homo sapiens, UniProt P53355): 99.5%
MAP3K3 (Homo sapiens, UniProt Q99759): 117%
Protein kinase C beta type, isoform beta-I (PRKCB, Homo sapiens, UniProt P05771): 107%
STK39 (Homo sapiens, UniProt Q9UEW8): 79.8%
STK10 (Homo sapiens, UniProt O94804): 94.7%
CAMKK2 (Homo sapiens, UniProt Q96RR4): 112%
CAMK2D (Homo sapiens, UniProt Q13557): 100%

Series 2 — cell line: mouse MPNST tumor cells; method: high-content nuclear imaging; measured: cell number; tested at: 10 µM; time: 12 h; notes: mean of 2 replicates; relative to: plate mean; direction: higher = more cells; endpoint: nuclei count
CCCOc1ccc(C(=O)OCCN(CC)CC)cc1N: -0.752 z-score
NC(=O)N1c2ccccc2CC(=O)c2ccccc21: 0.0114 z-score
C#CC(=O)N(c1ccc(OC)cc1OC)C(C(=O)NCC(=O)OCC)c1cccs1 (centres unmarked): -5.41 z-score
Cc1cccc(Nc2ccncc2S(=O)(=O)NC(=O)NC(C)C)c1: 0.731 z-score
Nc1ncnc2c1c(COc1cccc(Cl)c1)nn2C1CCOCC1: 0.656 z-score

Series 3 — read-out: ligand displacement; tested at: 10 µM; endpoint: inhibition
Target: D(3) dopamine receptor (DRD3, Homo sapiens, UniProt P35462)
Chain of UniProt P35462 (whole entry, looked up): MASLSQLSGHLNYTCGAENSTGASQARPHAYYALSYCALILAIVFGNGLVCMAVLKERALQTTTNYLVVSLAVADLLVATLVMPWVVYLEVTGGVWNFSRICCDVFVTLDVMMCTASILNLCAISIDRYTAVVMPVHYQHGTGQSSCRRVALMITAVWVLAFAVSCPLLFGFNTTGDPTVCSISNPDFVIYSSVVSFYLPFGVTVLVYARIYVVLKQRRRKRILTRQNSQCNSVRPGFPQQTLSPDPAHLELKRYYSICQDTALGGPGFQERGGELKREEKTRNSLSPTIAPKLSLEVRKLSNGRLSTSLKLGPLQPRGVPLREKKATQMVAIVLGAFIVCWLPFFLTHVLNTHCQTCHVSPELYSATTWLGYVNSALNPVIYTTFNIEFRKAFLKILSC
O=C1NC(c2ccccn2)Sc2ccccc21 (centres unmarked): 27.8%
Cn1nc(C(=O)NCc2ccc(C(=O)O)cc2)cc1-c1ccc2[nH]ccc2c1: 1.67%
N#CC1(c2ccccn2)CCN(Cc2cc(C(=O)N3CCCC3)c(=O)n3ccccc23)CC1: -12.8%
C[C@@H](c1cccc(C#N)c1)n1cc(Cl)cc(C(N)=O)c1=N: -3.38%
NC(=O)c1ccc2nc(-c3ccc(C4(N)CCC4)cc3)c(-c3ccccc3)n2n1: 22.6%
CCC(=NO)C(C)=Cc1ccc(F)c(C)c1: 8.6%
Cc1ncc(-c2cc(Cl)ccc2F)cc1-n1c(=O)n(CC(N)=O)c2ccccc21: -17%
Cc1noc([C@H]2C[C@@H](c3ccc(C(F)(F)F)cc3)CN(C(=O)N3CCS(=O)(=O)C3)C2)n1: -2.97%
Cc1ccc(-c2cnc([C@@]3(O)CC[C@H](C(=O)O)C(C)(C)C3)s2)cc1Nc1cccc(C(F)(F)F)n1: -8.44%
O=C(NS(=O)(=O)c1ccc(NCC2CCOCC2)c([N+](=O)[O-])c1)c1ccc(N2CCN(Cc3ccc(C(F)(F)F)cc3-c3ccc(Cl)cc3)CC2)cc1Oc1cnc2[nH]ccc2c1: -74.3%
CC1=C(C#N)C(c2ccc3[nH]nc(C)c3c2)C(C#N)=C(C)N1: 18.1%
Cn1cc(Cl)c2c(Oc3c(F)cc(Nc4cc(Cl)nc(N)n4)cc3F)ccnc21: -19.2%
COc1cccc(NC(=O)c2nc3scc(CN(C)Cc4ccccc4)c3c(=O)[nH]2)c1: 20.1%
CC[C@H](CC(=O)O)n1c(=O)c2ncccc2n(Cc2cn(C)c3cc(C)cc(C)c23)c1=O: 11.1%

Series 4 — cell line: HaCaT; tested at: 100 µM; time: 36 h; endpoint: viability
CC(Cc1cccc(C(F)(F)F)c1)NCCOC(=O)c1ccccc1 (centres unmarked): 17.5%
CC(C(=O)O)c1ccc2c(c1)[nH]c1ccc(Cl)cc12 (centres unmarked): 71.5%
NS(=O)(=O)c1cc2c(cc1Cl)NC(C(Cl)Cl)NS2(=O)=O (centres unmarked): 98.4%
Nc1ccc(S(=O)(=O)Nc2cnc3ccccc3n2)cc1: 59.3%
Cc1cc(C(C#N)c2ccc(Cl)cc2)c(Cl)cc1NC(=O)c1cc(I)cc(I)c1O (centres unmarked): 5.46%
C[C@@H](c1nc(-c2ccc(C#N)cc2)cs1)[C@](O)(Cn1cncn1)c1cc(F)ccc1F: 12.4%
Nc1c2c(nc3ccccc13)CCCC2: 26.2%
CN(C)[C@@H]1C(O)=C(C(N)=O)C(=O)[C@@]2(O)C(O)=C3C(=O)c4c(O)ccc(Cl)c4[C@@H](O)[C@H]3C[C@@H]12: 87.8%
CCCCCCCCc1ccc(CCC(N)(CO)CO)cc1: 8.1%
COc1ccc2[nH]cc(CCNC(C)=O)c2c1: 87.1%
CC1(C)CCC(C)(C)c2cc(NC(=O)c3ccc(C(=O)O)cc3)ccc21: 66.9%

A few entries again (series 1):
TGFBR1 (Homo sapiens, UniProt P36897): 98.7%
PRKACA (Homo sapiens, UniProt P17612): 100%
DAPK2 (Homo sapiens, UniProt Q9UIK4): 94.1%
cGMP-dependent protein kinase 1, isoform beta (PRKG1, Homo sapiens, UniProt Q13976): 98.5%
